# Results of several laboratories.
# Parts stem from different laboratories: compare values within a part only. Substitutions count along the parent as printed.
# Chain of UniProt P07947 (whole entry, looked up): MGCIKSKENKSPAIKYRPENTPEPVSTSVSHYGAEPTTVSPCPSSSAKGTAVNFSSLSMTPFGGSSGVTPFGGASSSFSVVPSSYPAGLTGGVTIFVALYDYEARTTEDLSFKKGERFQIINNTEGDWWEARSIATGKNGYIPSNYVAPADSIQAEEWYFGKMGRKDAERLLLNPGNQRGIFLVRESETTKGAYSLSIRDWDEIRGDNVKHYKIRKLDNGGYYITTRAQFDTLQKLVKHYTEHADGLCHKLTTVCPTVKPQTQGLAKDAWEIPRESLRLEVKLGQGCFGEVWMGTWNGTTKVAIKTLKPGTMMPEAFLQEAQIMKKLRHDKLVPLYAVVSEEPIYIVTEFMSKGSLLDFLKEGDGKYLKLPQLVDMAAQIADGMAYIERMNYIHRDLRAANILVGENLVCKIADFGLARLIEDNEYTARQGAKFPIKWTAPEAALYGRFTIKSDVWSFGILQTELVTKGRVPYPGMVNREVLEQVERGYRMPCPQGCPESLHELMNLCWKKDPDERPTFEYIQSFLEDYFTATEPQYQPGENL
# Chain of UniProt Q15349 (whole entry, looked up): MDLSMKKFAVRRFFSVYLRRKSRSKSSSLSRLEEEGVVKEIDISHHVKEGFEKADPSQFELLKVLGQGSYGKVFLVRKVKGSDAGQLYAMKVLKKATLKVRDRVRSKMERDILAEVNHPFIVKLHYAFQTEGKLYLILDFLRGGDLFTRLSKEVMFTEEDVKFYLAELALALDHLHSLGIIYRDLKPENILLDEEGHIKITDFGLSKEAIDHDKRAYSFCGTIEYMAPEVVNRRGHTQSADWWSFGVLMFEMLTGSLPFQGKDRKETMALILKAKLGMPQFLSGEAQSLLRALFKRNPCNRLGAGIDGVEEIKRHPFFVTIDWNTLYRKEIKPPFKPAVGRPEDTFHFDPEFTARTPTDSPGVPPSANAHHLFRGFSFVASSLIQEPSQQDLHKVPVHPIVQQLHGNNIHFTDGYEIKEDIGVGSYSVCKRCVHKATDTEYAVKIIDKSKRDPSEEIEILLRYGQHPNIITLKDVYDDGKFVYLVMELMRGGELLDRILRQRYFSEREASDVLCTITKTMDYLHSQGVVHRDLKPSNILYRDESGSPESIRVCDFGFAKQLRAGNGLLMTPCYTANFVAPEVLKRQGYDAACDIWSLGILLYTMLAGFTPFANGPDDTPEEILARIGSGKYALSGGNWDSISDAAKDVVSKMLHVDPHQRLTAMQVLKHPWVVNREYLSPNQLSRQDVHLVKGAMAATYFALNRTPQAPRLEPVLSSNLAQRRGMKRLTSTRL
# Chain of UniProt Q9HBY8 (whole entry, looked up): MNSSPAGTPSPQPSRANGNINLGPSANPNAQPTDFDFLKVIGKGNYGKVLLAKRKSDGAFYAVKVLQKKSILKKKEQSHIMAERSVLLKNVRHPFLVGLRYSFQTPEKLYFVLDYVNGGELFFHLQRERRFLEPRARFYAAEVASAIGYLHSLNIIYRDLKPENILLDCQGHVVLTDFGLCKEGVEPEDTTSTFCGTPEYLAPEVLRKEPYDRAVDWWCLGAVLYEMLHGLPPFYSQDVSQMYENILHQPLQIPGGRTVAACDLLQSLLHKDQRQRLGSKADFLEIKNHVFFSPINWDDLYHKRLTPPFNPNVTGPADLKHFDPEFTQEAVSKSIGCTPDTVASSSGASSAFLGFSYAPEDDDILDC
# Chain of UniProt O15146 (whole entry, looked up): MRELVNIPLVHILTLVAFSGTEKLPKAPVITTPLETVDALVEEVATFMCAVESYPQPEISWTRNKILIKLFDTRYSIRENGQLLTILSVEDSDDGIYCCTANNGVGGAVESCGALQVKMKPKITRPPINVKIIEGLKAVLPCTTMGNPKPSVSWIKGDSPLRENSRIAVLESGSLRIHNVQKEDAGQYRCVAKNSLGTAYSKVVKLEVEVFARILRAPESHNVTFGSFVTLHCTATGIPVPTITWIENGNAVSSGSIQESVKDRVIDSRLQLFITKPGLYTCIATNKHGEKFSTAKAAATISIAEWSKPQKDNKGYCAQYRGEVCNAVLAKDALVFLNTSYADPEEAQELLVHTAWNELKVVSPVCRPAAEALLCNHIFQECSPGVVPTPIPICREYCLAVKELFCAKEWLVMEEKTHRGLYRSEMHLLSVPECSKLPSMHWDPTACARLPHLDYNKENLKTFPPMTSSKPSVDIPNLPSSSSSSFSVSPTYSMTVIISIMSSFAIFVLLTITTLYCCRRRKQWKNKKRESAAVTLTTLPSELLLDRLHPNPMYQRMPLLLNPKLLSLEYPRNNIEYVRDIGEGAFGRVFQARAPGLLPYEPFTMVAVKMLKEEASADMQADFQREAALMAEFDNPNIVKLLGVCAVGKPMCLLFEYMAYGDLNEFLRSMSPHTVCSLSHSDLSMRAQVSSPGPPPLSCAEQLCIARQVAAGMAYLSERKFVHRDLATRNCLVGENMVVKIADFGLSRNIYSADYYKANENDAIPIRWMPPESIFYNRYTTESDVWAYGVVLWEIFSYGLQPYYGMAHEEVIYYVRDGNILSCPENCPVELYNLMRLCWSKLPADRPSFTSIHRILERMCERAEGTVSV
# Chain of UniProt Q9UF33 (whole entry, looked up): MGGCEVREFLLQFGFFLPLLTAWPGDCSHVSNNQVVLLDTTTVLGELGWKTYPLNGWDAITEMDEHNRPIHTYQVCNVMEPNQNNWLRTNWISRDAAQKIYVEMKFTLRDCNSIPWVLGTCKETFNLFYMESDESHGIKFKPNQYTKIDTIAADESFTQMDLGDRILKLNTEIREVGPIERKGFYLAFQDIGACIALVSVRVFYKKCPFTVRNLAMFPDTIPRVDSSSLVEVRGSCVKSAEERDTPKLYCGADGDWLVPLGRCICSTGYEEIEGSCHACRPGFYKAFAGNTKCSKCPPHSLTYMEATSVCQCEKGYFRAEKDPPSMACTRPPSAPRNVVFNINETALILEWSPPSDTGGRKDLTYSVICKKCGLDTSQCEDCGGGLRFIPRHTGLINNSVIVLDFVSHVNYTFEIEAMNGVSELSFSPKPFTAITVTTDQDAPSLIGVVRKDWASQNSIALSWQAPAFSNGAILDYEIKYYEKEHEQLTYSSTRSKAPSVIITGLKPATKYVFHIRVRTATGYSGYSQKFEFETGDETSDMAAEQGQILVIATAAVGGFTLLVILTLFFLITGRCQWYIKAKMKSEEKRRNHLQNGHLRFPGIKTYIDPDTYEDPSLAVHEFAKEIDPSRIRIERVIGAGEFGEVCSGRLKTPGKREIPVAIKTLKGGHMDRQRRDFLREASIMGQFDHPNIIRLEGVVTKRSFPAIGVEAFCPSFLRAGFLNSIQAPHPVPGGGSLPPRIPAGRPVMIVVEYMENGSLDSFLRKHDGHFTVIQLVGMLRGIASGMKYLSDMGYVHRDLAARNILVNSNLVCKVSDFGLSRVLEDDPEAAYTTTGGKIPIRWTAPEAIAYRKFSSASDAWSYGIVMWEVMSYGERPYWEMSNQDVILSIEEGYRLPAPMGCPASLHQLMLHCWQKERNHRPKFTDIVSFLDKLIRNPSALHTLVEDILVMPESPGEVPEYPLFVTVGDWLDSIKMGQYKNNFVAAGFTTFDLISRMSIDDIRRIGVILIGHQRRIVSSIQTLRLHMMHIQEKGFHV
# Chain of UniProt P51812 (whole entry, looked up): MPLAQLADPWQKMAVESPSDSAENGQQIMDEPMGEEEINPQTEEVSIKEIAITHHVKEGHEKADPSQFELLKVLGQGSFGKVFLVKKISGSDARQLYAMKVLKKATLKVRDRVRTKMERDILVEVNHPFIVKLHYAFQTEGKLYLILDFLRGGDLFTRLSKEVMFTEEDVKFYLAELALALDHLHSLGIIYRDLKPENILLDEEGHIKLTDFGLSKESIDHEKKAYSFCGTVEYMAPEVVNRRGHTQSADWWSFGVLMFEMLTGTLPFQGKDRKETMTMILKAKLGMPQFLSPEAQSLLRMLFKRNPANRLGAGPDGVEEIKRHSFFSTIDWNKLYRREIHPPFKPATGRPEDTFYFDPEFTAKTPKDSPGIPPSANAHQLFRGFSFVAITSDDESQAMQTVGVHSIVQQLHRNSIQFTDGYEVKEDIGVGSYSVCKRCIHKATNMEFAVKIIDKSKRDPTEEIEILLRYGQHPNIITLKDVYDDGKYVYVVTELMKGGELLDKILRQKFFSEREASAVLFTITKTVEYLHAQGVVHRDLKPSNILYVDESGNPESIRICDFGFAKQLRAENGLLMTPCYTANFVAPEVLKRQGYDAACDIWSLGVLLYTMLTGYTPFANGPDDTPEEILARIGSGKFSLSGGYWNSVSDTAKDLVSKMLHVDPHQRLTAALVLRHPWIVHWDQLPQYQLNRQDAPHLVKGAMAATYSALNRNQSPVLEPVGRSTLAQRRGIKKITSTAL
# Chain of UniProt Q52WX2 (whole entry, looked up): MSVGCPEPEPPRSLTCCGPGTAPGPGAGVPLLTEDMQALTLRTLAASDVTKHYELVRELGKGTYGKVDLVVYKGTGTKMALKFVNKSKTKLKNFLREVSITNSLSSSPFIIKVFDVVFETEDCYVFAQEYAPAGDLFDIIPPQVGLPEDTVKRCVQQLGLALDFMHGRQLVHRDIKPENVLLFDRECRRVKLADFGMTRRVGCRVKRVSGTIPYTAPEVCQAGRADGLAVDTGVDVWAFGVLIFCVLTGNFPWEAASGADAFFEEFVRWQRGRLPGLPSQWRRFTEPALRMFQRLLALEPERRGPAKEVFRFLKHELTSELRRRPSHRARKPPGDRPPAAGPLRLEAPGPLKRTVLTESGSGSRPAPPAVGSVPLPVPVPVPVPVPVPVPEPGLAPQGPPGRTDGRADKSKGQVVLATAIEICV

# Study 1 — SMILES: O=C1NC(=O)/C(=C/c2ccc3nccnc3c2)S1; read-out: enzyme activity; mode: inhibitor; tested at: 0.5 µM; relative to: control
target,remaining activity [%]
"Activin receptor type-1-like (ACVRL1, Homo sapiens, UniProt P37023)",107
"Serine/threonine-protein kinase PAK 5 (PAK5, Homo sapiens, UniProt Q9P286)",97.4
"Casein kinase I isoform delta (CSNK1D, Homo sapiens, UniProt P48730)",96.3
"Tyrosine-protein kinase JAK1 (JAK1, Homo sapiens, UniProt P23458)",103
"Tyrosine-protein kinase receptor TYRO3 (TYRO3, Homo sapiens, UniProt Q06418)",99.1
"Dual specificity protein kinase CLK2 (CLK2, Homo sapiens, UniProt P49760)",74
"Tyrosine-protein kinase Yes (YES1, Homo sapiens, UniProt P07947)",89.3
"Calcium/calmodulin-dependent protein kinase type 1 (CAMK1, Homo sapiens, UniProt Q14012)",95.7
"Ephrin type-A receptor 6 (EPHA6, Homo sapiens, UniProt Q9UF33)",82.4
"Serine/threonine-protein kinase Sgk2 (SGK2, Homo sapiens, UniProt Q9HBY8)",99.3
"Serine/threonine-protein kinase PAK 6 (PAK6, Homo sapiens, UniProt Q9NQU5)",107
"Muscle, skeletal receptor tyrosine-protein kinase (MUSK, Homo sapiens, UniProt O15146)",16.2
"Ribosomal protein S6 kinase alpha-3 (RPS6KA3, Homo sapiens, UniProt P51812)",101
"Vascular endothelial growth factor receptor 1 (FLT1, Homo sapiens, UniProt P17948)",87.5

# Study 2 — read-out: cell-free assay; technique: competition with immobilised ligand; tested at: 1 µM
# SMILES: CNC(=O)Nc1ccc2c(c1)CC[C@@]21OC(=O)N(CC(=O)N(Cc2ccc(F)cc2)[C@@H](C)C(F)(F)F)C1=O
target,remaining binding [%]
"Myotonin-protein kinase (DMPK, Homo sapiens, UniProt Q09013)",100
"Bone morphogenetic protein receptor type-1B (BMPR1B, Homo sapiens, UniProt O00238)",82
"Ribosomal protein S6 kinase alpha-2, N-terminal kinase domain (RPS6KA2, Homo sapiens, UniProt Q15349)",76
"Wee1-like protein kinase (WEE1, Homo sapiens, UniProt P30291)",80
"Epidermal growth factor receptor (EGFR, Homo sapiens, UniProt P00533, T790M)",73
"Serine/threonine-protein kinase SBK1 (SBK1, Homo sapiens, UniProt Q52WX2)",79
"Ribosomal protein S6 kinase alpha-4, N-terminal kinase domain (RPS6KA4, Homo sapiens, UniProt O75676)",100
"Serine/threonine-protein kinase MRCK beta (CDC42BPB, Homo sapiens, UniProt Q9Y5S2)",73
"Phosphatidylinositol 4,5-bisphosphate 3-kinase catalytic subunit alpha isoform (PIK3CA, Homo sapiens, UniProt P42336, E542K)",76

# Study 3 — target: JUND, bZIP domain (human); technique: DHFR protein complementation; medium: yeast; relative to: wild-type JUN-FOS pair; reading: higher = stronger binding
# Notes: single substitutions, most at no-binding floor
# Starting sequence: JUN, bZIP domain (human); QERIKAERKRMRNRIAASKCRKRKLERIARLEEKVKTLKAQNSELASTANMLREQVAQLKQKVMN
Variant,binding fitness
L38V,-1.44 natural log
V56P,-1.43 natural log
A49M,-1.25 natural log
N42M,-1.38 natural log
N42S,-1.34 natural log
V56N,-1.49 natural log
I28F,-1.29 natural log
R53P,-1.35 natural log

# Further values, each from its own experiment
Compound,medium,endpoint,value
CCOC(=O)[C@@H]1CSCC(=O)N[C@@H](CC)C(=O)N(C)[C@@H](C)C(=O)N[C@@H](CC(C)C)C(=O)N2CCC[C@@H]2C(=O)N(CC(C)C)CC(=O)N[C@@H](CC(C)C)C(=O)N(C)[C@H](C)C(=O)N[C@@H](CC(C)C)C(=O)N1C,hydrocarbon/water,logD,1.86
